Results pooled from the literature.
Numbered parts are unrelated; each lists some results of a single study.
Sequence of UniProt Q13523 (whole entry, looked up): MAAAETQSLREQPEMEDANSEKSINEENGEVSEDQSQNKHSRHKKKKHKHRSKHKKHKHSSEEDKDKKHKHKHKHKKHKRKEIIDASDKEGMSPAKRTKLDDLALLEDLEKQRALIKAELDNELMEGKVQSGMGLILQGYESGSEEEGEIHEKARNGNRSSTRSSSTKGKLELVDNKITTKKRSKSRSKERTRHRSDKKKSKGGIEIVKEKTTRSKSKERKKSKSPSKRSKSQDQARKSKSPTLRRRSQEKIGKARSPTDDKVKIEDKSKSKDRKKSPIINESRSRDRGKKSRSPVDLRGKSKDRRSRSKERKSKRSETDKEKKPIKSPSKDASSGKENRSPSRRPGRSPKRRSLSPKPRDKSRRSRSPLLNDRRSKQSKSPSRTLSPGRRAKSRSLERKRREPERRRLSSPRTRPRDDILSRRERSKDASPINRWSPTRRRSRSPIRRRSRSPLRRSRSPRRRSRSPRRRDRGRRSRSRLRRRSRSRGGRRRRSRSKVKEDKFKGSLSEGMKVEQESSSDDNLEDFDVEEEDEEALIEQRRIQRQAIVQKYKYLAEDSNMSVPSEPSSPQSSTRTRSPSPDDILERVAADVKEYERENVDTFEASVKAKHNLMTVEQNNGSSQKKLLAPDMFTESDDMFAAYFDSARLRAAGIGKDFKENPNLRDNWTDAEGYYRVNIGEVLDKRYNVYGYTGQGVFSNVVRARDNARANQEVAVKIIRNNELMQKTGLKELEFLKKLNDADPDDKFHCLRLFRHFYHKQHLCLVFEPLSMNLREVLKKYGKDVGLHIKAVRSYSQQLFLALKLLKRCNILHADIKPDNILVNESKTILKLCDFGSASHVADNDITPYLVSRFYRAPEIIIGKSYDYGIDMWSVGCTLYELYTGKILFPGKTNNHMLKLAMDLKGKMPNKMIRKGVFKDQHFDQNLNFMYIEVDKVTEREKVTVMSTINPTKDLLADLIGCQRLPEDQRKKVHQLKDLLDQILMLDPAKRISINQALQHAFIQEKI
Sequence of UniProt Q09013 (whole entry, looked up): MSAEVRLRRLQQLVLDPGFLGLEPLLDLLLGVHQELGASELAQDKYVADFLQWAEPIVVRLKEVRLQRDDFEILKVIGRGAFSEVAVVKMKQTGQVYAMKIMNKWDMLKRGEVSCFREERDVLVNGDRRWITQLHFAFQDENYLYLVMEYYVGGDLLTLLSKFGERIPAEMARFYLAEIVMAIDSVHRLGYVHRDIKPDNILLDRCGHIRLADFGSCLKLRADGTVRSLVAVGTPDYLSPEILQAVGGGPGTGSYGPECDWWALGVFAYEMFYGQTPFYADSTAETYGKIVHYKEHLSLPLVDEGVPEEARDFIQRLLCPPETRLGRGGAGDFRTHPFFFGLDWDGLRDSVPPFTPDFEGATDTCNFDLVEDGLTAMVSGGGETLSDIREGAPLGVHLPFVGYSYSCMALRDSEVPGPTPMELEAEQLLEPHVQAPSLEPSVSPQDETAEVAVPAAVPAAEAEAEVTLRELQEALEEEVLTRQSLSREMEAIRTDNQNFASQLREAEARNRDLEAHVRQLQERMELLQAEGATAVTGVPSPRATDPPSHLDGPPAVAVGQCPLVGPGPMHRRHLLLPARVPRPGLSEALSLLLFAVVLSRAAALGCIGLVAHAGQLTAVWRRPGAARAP
Sequence of UniProt Q8NI60 (whole entry, looked up): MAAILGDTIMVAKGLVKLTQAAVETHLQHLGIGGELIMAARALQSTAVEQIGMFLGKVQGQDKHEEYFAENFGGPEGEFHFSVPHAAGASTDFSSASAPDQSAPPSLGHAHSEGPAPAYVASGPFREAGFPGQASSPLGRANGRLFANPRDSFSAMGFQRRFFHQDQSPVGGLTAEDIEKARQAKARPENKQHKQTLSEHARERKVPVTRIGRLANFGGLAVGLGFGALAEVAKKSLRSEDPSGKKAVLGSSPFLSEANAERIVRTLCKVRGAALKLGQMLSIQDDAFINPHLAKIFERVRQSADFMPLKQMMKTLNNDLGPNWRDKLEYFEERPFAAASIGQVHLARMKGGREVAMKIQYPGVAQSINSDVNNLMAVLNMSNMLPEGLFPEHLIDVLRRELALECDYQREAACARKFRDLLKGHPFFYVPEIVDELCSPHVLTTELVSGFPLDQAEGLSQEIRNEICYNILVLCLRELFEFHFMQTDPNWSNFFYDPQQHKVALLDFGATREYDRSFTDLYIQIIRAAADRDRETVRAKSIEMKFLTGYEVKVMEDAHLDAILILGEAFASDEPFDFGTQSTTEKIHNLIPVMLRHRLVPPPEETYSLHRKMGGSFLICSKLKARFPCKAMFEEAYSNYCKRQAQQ
Sequence of UniProt P09619 (whole entry, looked up): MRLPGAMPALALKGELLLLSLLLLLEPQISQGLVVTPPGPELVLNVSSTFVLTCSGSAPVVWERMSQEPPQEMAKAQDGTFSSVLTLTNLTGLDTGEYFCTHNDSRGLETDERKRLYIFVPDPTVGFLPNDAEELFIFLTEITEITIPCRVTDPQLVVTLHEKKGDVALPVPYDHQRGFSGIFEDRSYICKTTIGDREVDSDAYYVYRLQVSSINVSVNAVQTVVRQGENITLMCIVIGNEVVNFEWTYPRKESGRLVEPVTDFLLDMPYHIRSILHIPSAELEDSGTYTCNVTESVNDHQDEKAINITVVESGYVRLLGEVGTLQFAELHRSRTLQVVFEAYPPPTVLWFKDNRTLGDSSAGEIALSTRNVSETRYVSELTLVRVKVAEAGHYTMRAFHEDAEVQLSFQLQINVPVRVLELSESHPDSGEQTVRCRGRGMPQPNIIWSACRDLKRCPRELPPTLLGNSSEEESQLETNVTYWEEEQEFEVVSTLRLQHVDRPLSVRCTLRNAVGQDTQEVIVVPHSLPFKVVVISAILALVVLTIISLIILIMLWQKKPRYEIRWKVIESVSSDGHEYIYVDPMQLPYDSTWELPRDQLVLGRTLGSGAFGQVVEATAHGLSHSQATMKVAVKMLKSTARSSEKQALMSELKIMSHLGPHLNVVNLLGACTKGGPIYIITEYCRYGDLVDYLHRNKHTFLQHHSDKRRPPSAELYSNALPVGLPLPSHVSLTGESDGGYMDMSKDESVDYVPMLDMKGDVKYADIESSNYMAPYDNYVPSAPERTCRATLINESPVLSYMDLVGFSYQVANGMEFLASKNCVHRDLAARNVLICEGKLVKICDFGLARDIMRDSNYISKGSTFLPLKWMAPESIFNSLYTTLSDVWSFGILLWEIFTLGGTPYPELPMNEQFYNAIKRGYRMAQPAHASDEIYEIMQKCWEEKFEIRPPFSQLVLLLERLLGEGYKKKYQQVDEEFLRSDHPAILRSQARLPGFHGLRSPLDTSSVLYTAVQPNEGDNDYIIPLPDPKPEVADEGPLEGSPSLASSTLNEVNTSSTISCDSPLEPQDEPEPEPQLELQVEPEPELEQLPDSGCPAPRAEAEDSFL
Sequence of UniProt P42679 (whole entry, looked up): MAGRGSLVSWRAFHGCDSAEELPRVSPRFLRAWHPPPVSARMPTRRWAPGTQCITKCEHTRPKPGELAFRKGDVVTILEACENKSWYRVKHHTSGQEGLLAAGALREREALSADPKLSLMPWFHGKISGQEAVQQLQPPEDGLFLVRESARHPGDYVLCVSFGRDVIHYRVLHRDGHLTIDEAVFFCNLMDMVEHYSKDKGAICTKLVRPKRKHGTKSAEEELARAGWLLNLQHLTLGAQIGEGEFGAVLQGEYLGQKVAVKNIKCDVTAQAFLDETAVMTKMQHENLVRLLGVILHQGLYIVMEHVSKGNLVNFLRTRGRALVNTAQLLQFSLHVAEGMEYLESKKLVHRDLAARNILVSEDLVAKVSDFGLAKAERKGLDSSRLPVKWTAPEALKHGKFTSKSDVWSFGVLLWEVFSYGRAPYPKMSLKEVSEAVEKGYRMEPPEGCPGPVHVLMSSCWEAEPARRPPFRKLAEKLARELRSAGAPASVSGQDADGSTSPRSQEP

Study 1
SMILES: CC(C)n1cnc(-c2ccc(F)cc2)c1-c1ncc(C(=O)Nc2ccc(N3CCN(C)CC3)cc2)[nH]1
Method: phase 2a clinical trial
Species: patients with idiopathic pulmonary fibrosis
It gave 0% for “patients with treatment-emergent adverse events” (refers to: carbon dioxide decreased; 30 mg once daily, Grade 1).
It gave 0% for “patients with treatment-emergent adverse events” (refers to: electrocardiogram high voltage; 30 mg once daily, Grade 2).
The “patients with treatment-emergent adverse events” was 0% (refers to: left bundle branch block; 60 mg once daily, Grade 3).
It gave 0% for “patients with treatment-emergent adverse events” (refers to: benign prostatic hyperplasia; dose not given, Grade 2, maximum intensity, all drug arms total).
refers to: electrocardiogram QT prolonged; 60 mg once daily, Grade 2 — “patients with treatment-emergent adverse events”: 0%.
refers to: first degree atrioventricular block; 30 mg once daily, Grade 4 — “patients with treatment-emergent adverse events”: 0%.
For refers to: benign prostatic hyperplasia; 30 mg once daily, Grade 2, maximum intensity: “patients with treatment-emergent adverse events” read 0%.
refers to: electrocardiogram high voltage; 60 mg once daily, Grade 2 — “patients with treatment-emergent adverse events”: 0%.
The “patients with treatment-emergent adverse events” was 0% (refers to: electrocardiogram QT prolonged; dose not given, Grade 3, all drug arms total).

Study 2
Target: Beta-1 adrenergic receptor (ADRB1, Homo sapiens, UniProt P08588)
Sequence of UniProt P08588 (whole entry, looked up): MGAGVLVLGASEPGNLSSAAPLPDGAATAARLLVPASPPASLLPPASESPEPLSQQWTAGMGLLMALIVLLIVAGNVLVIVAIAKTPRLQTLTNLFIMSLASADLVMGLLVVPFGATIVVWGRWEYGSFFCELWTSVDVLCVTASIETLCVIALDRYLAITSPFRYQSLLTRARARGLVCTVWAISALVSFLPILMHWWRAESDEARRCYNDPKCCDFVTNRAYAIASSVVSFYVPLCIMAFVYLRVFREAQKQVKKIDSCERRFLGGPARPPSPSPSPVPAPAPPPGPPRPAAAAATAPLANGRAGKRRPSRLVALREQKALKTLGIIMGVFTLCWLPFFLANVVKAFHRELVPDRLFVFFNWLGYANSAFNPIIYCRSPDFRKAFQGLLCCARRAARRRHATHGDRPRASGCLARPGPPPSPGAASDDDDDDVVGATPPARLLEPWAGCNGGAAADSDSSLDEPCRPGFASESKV
Action: agonist
For `COc1ccccc1N1CCN([C@H]2[C@@H]3OC[C@@H](O3)[C@@H](NCc3ccco3)[C@@H]2O)CC1`, the EC50 was ≥ 100 µM.
With `Cc1cc(=O)oc2c(O)c(O)ccc12` the EC50 was ≥ 100 µM.
`Cc1noc2c(-c3ccc([S+](C)(=O)[O-])cc3)cc(-c3ccc(F)cc3)nc12` has an EC50 of ≥ 100 µM.
With `Cc1noc(C)c1-c1nccc2c(=O)cc(N(C)c3ccccc3)oc12` the EC50 was ≥ 100 µM.
The EC50 of `Nn1c(SCc2cc(=O)oc3cc(O)ccc23)nnc1-c1ccccc1Br` is reported as ≥ 100 µM.
`O=c1c2c3c(sc2ncn1CC(O)COc1ccc(Cl)cc1Cl)CCC3` (stereo not drawn) has an EC50 of ≥ 100 µM.
`CCOc1nccn2c(-c3ccc(CNCC(O)CO)cc3)cnc12` (stereo not drawn) has an EC50 of ≥ 100 µM.
`COc1cc(CN2CC=C(C)CC2)ccc1OCC(O)CN1CCSCC1` (stereo not drawn) gave an EC50 of ≥ 100 µM.
`COc1ccccc1N1CCC(N2C(=O)[C@H]3CCCN3C2=O)C1` (stereo partly drawn) has an EC50 of ≥ 100 µM.

Study 3
Target: Calcium/calmodulin-dependent protein kinase type II subunit alpha (CAMK2A, Homo sapiens, UniProt Q9UQM7)
Sequence of UniProt Q9UQM7 (whole entry, looked up): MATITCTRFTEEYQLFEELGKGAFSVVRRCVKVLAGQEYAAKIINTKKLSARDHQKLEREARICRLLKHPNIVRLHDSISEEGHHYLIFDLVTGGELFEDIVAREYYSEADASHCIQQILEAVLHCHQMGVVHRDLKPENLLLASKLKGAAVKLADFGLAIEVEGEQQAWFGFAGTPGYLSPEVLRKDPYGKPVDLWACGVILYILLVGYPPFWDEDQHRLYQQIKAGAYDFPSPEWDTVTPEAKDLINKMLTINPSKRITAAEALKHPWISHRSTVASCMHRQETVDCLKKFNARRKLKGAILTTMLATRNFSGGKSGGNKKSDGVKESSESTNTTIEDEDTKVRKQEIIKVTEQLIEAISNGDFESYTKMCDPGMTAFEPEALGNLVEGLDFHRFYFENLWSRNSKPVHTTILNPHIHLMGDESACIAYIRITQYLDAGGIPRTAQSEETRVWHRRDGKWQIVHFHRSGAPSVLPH
Observed: enzyme activity
Action: inhibitor
Concentration: 10 µM
`O=c1cc(-c2ccccc2)oc2cc(O)c(O)c(O)c12` gave an inhibition of -10%.
With `CC(C)=CCC[C@H](C)CC=O` the inhibition was -4%.
`CCCCCCCC/C=C\CCCCCCCCCCCC(=O)O` gave an inhibition of -28%.
`O=C(/C=C/c1ccc(O)c(O)c1)N[C@@H](Cc1ccc(O)c(O)c1)C(=O)O` has an inhibition of 11%.
For `O=c1cc(-c2ccc(O)c(O)c2)oc2cc(O[C@@H]3O[C@H](CO)[C@@H](O)[C@H](O)[C@H]3O)c(O)c(O)c12`, the inhibition was 6%.
For `O=C(c1ccc(NS(=O)(=O)c2cccc3cccnc23)cc1)N1CCN(CC2CC2)CC1`, the inhibition was 6%.

Study 4
SMILES: CO[C@@H](C)c1c(Nc2ccc([C@H](N(C)C(=O)C3CCS(=O)(=O)CC3)C(F)(F)F)cc2)cnc2cc(Cl)nn12
Concentration: 1 µM
The remaining binding was 100% (ALK (Homo sapiens, UniProt Q9UM73); cell-free assay, competition with immobilised ligand).
For EGFR (Homo sapiens, UniProt P00533, L858R); cell-free assay, competition with immobilised ligand: remaining binding read 88%.
For EPHA5 (Homo sapiens, UniProt P54756); cell-free assay, competition with immobilised ligand: remaining binding read 100%.
It gave 85% for remaining binding (PRKD3 (Homo sapiens, UniProt O94806); cell-free assay, competition with immobilised ligand).
It gave 73% for remaining binding (CDK19 (Homo sapiens, UniProt Q9BWU1); competition binding).
PDGFRB (Homo sapiens, UniProt P09619); cell-free assay, competition with immobilised ligand — remaining binding: 100%.
It gave 88% for remaining binding (CDK2 (Homo sapiens, UniProt P24941); cell-free assay, competition with immobilised ligand).
It gave 100% for remaining binding (PRPF4B (Homo sapiens, UniProt Q13523); cell-free assay, competition with immobilised ligand).
It gave 99% for remaining binding (MATK (Homo sapiens, UniProt P42679); cell-free assay, competition with immobilised ligand).
EIF2AK2 (Homo sapiens, UniProt P19525); cell-free assay, competition with immobilised ligand — remaining binding: 96%.
COQ8A (Homo sapiens, UniProt Q8NI60); cell-free assay, competition with immobilised ligand — remaining binding: 100%.
The remaining binding was 82% (SYK (Homo sapiens, UniProt P43405); cell-free assay, competition with immobilised ligand).
For RET (Homo sapiens, UniProt P07949, M918T); cell-free assay, competition with immobilised ligand: remaining binding read 95%.
DMPK (Homo sapiens, UniProt Q09013); cell-free assay, competition with immobilised ligand — remaining binding: 84%.
It gave 80% for remaining binding (STK35 (Homo sapiens, UniProt Q8TDR2); cell-free assay, competition with immobilised ligand).
